Measured values pooled from the literature.
Positions of bridges follow the written chain, without caps; N, C: chain ends. Ends that are not written are not given here. No end group written: not given here.
RGS4 residues 52-end: RGS4 residues 52-end 52-205, Alexa Fluor 532 label (Homo sapiens, UniProt P49798)
Chain of UniProt P49798 (whole entry, unmodified, looked up): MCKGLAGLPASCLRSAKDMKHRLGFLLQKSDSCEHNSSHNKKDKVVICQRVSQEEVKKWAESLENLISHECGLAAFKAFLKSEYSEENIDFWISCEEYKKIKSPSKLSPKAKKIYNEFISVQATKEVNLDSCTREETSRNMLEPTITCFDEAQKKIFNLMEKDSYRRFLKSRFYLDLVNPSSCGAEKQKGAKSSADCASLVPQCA
RGS4 residues 19-end: RGS4 residues 19-end 19-205, Alexa Fluor 568 label (Rattus norvegicus, UniProt P49799)
Chain of UniProt P49799 (whole entry, unmodified, looked up): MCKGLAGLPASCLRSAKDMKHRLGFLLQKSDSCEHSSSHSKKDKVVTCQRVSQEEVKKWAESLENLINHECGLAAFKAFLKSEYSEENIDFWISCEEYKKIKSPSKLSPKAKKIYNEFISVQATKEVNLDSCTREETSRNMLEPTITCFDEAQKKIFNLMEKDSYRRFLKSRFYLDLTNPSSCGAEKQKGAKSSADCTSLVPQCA
CNOT1/CNOT2/CNOT3/CNOT10/CNOT11/CNOT7/CNOT6/CNOT9 CCR4-NOT complex: CNOT1/CNOT2/CNOT3/CNOT10/CNOT11/CNOT7/CNOT6/CNOT9 CCR4-NOT complex 1-2376 (Homo sapiens)
B1: PPP1R15B 636-698 (Homo sapiens, UniProt Q5SWA1); chain VKRKKVTFLEEVTEYYISGDEDRKGPWEEFARDGCRFQKRIQETEDAIGYCLTFEHRERMFNR
B2: apcA (Synechocystis sp. PCC 6803, UniProt Q01951); bilin at Cys81; sequence looked up; chain MSIVTKSIVNADAEARYLSPGELDRIKAFVTGGAARLRIAETLTGSRETIVKQAGDRLFQKRPDIVSPGGNAYGEEMTATCLRDMDYYLRLVTYGVVSGDVTPIEEIGLVGVREMYRSLGTPIEAVAQSVREMKEVASGLMSSDDAAEASAYFDFVIGKMS
B3: pum 548-776 (Drosophila melanogaster, UniProt P25822-1); sequence looked up; chain ESQPRPPNLLFPPLPFNHMLMDHGQGMGGGLGGVVGSGNGVGGGSGGGGAGGAYAAHQQMAAQMSQLQPPMMNGVGGGMPMAAQSPMLNHQAAGPNHMESPGNLLQQQNFDVQQLFRSQNPGLAAVATNAAAAAAAAAAATSAASAAAAVGAPPVPNGSLQQSQQQQQQQQQQQQQQQMHMAAASQQFLAAQQQAQNAAYAAQQATSYVINPGQEAAPYMGMIAAAQMP
B4: UGT1A9 (Homo sapiens, UniProt O60656); chain GKLLVVPMDGSHWFTMRSVVEKLILRGHEVVVVMPEVSWQLGRSLNCTVKTYSTSYTLEDLDREFKAFAHAQWKAQVRSIYSLLMGSYNDIFDLFFSNCRSLFKDKKLVEYLKESSFDAVFLDPFDNCGLIVAKYFSLPSVVFARGILCHYLEEGAQCPAPLSYVPRILLGFSDAMTFKERVRNHIMHLEEHLLCHRFFKNALEIASEILQTPVTEYDLYSHTSIWLLRTDFVLDYPKPVMPNMIFIGGINCHQGKPLPMEFEAYINASGEHGIVVFSLGSMVSEIPEKKAMAIADALGKIPQTVLWRYTGTRPSNLANNTILVKWLPQNDLLGHPMTRAFITHAGSHGVYESICNGVPMVMMPLFGDQMDNAKRMETKGAGVTLNVLEMTSEDLENALKAVINDKSYKENIMRLSSLHKDRPVEPLDLAVFWVEFVMRHKGAPHLRPAAHDLTWYQYHSLDVIGFLLAVVLTVAFITFKCCAYGYRKCLGKKGRVKKAHKSKTH
B5: Rag2 1-387 (Mus musculus, UniProt P21784); sequence looked up; chain MSLQMVTVGHNIALIQPGFSLMNFDGQVFFFGQKGWPKRSCPTGVFHFDIKQNHLKLKPAIFSKDSCYLPPLRYPATCSYKGSIDSDKHQYIIHGGKTPNNELSDKIYIMSVACKNNKKVTFRCTEKDLVGDVPEPRYGHSIDVVYSRGKSMGVLFGGRSYMPSTQRTTEKWNSVADCLPHVFLIDFEFGCATSYILPELQDGLSFHVSIARNDTVYILGGHSLASNIRPANLYRIRVDLPLGTPAVNCTVLPGGISVSSAILTQTNNDEFVIVGGYQLENQKRMVCSLVSLGDNTIEISEMETPDWTSDIKHSKIWFGSNMGNGTIFLGIPGDNKQAMSEAFYFYTLRCSEEDLSEDQKIVSNSQTSTEDPGDSTPFEDSEEFCFS
B6: mmoB 1-138 (Methylosinus trichosporium, UniProt P27356); chain MSSAHNAYNAGIMQKTGKAFADEFFAEENQVVHESNAVVLVLMKSDEIDAIIEDIVLKGGKAKNPSIVVEDKAGFWWIKADGAIEIDAAEAGELLGKPFSVYDLLINVSSTVGRAYTLGTKFTITSELMGLDRALTDI
B7: pum 848-1090 (Drosophila melanogaster, UniProt P25822-1); sequence looked up; chain VPPGATRAGPPPPQGPQLYQPQPQTAQQNLYSQQNGSSVGGLALNTSSLTGRRDSFDRSTSAFSPSTMDYTSSGVAAAANAVNSTVAQAAAAAAAAAAARGKWPGAMSGAASGAYGALGAGNASASPLGAPITPPPSAQSCLLGSRAPGAESRQRQQQQQQLAAVGLPATAAAAQAAVAAAANNMFGSNSSIFSNPLAIPGTAAVAAAAAAAAAANSRQVAATAAAAAAVAAAAGGVGGAPQP
B8: SEC66 (Saccharomyces cerevisiae, UniProt P33754); glycosylated; lysines PEGylated; sequence looked up; chain MSEFNETKFSNNGTFFETEEPIVETKSISVYTPLIYVFILVVSLVMFASSYRKKQAKKISEQPSIFDENDAHDLYFQIKEMSENEKIHEKVLKAALLNRGAESVRRSLKLKELAPQINLLYKNGSIGEDYWKRFETEVKLIELEFKDTLQEAERLQPGWVQLFVMVCKEICFNQALSRRYQSILKRKEVCIKEWELKINNDGRLVN
B9: rpaA (Synechococcus elongatus, UniProt Q31S42); sequence looked up; chain MKPRILVIDDDSAILELVAVNLEMSGYDVRKAEDGIKGQALAVQLVPDLIMLDLMLPRVDGFTVCQRLRRDERTAEIPVLMLTALGQTQDKVEGFNAGADDYLTKPFEVEEMLARVRALLRRTDRIPHAARHSEILSYGPLTLIPERFEAIWFNRTVKLTHLEFELLHCLLQRHGQTVAPSEILKEVWGYDPDDDIETIRVHIRHLRTKLEPDPRHPRYIKTVYGAGYCLELPAETELHQHADQFPSAS
B10: ftsZ (Bacillus subtilis, UniProt P17865); sequence looked up; chain MLEFETNIDGLASIKVIGVGGGGNNAVNRMIENEVQGVEYIAVNTDAQALNLSKAEVKMQIGAKLTRGLGAGANPEVGKKAAEESKEQIEEALKGADMVFVTAGMGGGTGTGAAPVIAQIAKDLGALTVGVVTRPFTFEGRKRQLQAAGGISAMKEAVDTLIVIPNDRILEIVDKNTPMLEAFREADNVLRQGVQGISDLIATPGLINLDFADVKTIMSNKGSALMGIGIATGENRAAEAAKKAISSPLLEAAIDGAQGVLMNITGGTNLSLYEVQEAADIVASASDQDVNMIFGSVINENLKDEIVVTVIATGFIEQEKDVTKPQRPSLNQSIKTHNQSVPKREPKREEPQQQNTVSRHTSQPADDTLDIPTFLRNRNKRG
Chain of UniProt Q9H900 (whole entry, looked up): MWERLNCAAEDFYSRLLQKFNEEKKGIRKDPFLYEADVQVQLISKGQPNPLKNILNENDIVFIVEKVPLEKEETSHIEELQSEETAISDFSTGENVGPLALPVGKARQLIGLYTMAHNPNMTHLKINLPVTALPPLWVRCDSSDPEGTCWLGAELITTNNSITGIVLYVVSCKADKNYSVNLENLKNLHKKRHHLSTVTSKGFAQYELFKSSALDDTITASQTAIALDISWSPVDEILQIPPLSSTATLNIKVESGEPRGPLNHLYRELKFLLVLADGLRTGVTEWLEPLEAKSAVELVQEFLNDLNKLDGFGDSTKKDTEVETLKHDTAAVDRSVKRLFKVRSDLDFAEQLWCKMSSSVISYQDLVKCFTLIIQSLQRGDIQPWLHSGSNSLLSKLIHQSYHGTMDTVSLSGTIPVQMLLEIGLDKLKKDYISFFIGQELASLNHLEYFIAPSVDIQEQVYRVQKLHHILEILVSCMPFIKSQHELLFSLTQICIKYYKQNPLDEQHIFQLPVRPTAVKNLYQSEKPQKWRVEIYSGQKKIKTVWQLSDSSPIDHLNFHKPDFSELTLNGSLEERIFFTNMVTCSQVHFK
Chain of UniProt Q06904 (whole entry, looked up): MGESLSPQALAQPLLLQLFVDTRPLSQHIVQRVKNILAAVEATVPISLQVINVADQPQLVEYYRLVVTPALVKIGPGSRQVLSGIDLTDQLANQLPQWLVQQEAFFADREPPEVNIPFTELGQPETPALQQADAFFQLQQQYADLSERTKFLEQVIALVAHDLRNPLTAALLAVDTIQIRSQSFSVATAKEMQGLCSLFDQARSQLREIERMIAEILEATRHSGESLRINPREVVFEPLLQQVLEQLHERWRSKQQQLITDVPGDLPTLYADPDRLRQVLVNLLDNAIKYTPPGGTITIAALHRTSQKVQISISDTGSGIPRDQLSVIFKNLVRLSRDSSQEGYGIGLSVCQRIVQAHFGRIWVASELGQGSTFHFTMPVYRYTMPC
Chain of UniProt O34894 (whole entry, unmodified, looked up): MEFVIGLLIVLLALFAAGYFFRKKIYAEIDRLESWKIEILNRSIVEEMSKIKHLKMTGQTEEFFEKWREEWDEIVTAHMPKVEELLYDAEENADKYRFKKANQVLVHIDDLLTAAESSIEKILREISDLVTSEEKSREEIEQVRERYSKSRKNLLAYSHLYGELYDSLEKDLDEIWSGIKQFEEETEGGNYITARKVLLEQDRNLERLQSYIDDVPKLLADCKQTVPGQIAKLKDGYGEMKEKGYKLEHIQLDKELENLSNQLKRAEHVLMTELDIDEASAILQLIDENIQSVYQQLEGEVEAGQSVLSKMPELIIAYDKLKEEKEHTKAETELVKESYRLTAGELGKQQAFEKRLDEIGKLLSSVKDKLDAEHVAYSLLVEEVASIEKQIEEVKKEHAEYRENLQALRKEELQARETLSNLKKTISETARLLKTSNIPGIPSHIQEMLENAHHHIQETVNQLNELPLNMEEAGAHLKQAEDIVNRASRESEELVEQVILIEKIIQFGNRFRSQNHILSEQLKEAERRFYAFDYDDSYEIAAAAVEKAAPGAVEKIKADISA
Chain of UniProt Q55544 (whole entry, looked up): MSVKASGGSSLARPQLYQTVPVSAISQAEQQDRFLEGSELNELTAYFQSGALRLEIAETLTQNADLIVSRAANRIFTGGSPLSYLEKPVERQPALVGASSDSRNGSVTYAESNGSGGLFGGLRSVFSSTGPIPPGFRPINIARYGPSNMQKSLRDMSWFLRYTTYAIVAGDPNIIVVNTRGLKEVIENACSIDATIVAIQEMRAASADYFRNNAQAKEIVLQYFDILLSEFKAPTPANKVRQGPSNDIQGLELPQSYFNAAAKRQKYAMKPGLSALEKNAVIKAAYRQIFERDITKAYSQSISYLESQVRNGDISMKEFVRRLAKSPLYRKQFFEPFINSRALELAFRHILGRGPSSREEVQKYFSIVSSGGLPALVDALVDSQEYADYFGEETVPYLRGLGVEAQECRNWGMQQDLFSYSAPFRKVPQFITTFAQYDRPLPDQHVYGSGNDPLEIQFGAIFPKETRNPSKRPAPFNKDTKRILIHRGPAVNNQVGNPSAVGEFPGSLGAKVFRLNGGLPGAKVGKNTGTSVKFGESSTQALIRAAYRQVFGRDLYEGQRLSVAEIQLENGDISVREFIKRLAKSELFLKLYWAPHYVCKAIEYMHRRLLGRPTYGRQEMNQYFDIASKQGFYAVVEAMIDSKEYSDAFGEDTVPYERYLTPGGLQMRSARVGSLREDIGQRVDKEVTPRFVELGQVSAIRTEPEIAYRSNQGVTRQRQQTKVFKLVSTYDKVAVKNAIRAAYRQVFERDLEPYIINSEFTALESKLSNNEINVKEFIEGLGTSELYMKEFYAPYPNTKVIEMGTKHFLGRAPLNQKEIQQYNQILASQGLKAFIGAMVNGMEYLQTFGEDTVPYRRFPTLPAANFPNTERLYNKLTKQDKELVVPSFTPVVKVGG
Chain of UniProt P15919 (whole entry, looked up): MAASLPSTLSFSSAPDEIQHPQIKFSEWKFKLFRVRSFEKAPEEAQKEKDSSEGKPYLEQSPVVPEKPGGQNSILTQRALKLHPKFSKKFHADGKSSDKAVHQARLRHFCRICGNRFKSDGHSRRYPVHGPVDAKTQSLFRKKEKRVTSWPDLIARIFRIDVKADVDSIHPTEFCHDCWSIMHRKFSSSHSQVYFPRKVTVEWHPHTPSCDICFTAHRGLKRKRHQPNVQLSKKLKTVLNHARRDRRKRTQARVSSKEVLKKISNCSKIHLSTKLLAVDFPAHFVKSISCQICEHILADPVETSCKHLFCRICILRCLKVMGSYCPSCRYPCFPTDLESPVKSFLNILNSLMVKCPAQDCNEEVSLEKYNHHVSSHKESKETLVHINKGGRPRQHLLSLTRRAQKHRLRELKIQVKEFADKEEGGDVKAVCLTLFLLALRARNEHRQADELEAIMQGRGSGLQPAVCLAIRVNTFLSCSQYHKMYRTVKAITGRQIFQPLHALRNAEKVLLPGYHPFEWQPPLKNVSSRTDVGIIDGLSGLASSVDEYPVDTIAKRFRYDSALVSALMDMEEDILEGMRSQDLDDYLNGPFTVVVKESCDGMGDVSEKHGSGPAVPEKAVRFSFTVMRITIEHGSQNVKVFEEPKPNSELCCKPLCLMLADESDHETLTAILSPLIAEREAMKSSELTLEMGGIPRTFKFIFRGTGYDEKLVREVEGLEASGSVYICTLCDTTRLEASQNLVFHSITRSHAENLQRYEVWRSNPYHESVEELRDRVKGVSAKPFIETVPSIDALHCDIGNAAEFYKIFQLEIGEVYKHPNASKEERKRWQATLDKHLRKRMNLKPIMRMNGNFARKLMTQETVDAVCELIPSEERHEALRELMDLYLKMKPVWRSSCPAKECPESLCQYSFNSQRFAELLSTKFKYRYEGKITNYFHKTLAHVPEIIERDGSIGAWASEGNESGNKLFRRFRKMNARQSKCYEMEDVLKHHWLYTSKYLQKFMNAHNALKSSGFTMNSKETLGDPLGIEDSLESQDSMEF
Chain of UniProt Q99816 (whole entry, unmodified, looked up): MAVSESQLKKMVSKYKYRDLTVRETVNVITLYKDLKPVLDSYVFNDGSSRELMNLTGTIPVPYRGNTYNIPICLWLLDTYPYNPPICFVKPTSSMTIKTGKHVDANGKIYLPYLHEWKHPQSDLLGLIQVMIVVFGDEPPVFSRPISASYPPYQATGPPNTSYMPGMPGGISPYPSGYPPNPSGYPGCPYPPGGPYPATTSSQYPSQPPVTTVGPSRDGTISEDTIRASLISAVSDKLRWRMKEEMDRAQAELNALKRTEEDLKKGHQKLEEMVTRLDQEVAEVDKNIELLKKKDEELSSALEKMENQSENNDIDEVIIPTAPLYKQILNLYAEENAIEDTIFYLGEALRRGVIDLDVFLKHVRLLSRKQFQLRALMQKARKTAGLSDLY
Chain of UniProt P24752 (whole entry, looked up): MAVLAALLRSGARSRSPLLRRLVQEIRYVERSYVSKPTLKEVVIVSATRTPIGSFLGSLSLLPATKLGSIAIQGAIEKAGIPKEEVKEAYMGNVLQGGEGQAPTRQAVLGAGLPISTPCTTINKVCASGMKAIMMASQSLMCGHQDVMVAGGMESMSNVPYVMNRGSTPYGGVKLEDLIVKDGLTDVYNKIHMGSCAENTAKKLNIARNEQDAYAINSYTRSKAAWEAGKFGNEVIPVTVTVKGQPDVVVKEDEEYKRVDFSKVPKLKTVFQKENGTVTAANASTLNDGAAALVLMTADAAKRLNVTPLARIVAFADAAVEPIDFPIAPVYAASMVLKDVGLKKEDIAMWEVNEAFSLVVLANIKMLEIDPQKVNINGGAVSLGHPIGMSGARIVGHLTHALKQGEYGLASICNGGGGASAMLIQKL
Chain of UniProt Q57818 (whole entry, looked up): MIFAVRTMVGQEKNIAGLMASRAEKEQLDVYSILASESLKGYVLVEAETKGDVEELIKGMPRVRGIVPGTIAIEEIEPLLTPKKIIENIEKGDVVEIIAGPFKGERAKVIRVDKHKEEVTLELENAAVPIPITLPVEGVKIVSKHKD

B1 (PPP1R15B 636-698)
binding (PPP1CA 7-330 (Homo sapiens, UniProt P62136); MST; pH 7.4, together with: Mn2+ 2 mM): binds

Ac-YWCKGLCK-NH2 (designed peptide; disulfide 3-7; SMILES CC(=O)N[C@@H](Cc1ccc(O)cc1)C(=O)N[C@@H](Cc1c[nH]c2ccccc12)C(=O)N[C@H]1CSSC[C@@H](C(=O)N[C@@H](CCCCN)C(N)=O)NC(=O)[C@H](CC(C)C)NC(=O)CNC(=O)[C@H](CCCCN)NC1=O; N-acetyl, C-amide, Cys3-Cys7 disulfide)
binding (RGS4 residues 52-end; flow cytometry; peptide; room temperature): binds

CIKVAVS
inhibition (peptide, human polyclonal IgM RF ABR; concentration not given, 5 µg/mL mAb II-481 coated, together with: RF at 50% max binding concentration): 0%

B2 (apcA)
binding (apcE, phycocyanobilin (Synechocystis sp. PCC 6803, UniProt Q55544); cross-linking): binds

KHCYGFCK-NH2 (designed peptide; disulfide 3-7; also: on OBOC bead: half N-acetylated, half free N-terminus; C-amide, Cys3-Cys7 disulfide, N-acetyl partial)
binding (RGS4 residues 19-end; fluorescence imaging of beads; peptide): binds

Ac-PTPSAPVPL (Hrs peptide 346-354 (Homo sapiens); N-terminal acetyl)
binding (TSG101 UEV domain 2-145 del43-48 insertion GTG (Homo sapiens, UniProt Q99816); crystal structure; peptide): binds

B3 (pum 548-776)
binding (CNOT1/CNOT2/CNOT3/CNOT10/CNOT11/CNOT7/CNOT6/CNOT9 CCR4-NOT complex; pull-down): binds

H-KLCHGYCH-NH2 (designed peptide; disulfide 3-7; SMILES CC(C)C[C@H](NC(=O)[C@@H](N)CCCCN)C(=O)N[C@H]1CSSC[C@@H](C(=O)N[C@@H](Cc2c[nH]cn2)C(N)=O)NC(=O)[C@H](Cc2ccc(O)cc2)NC(=O)CNC(=O)[C@H](Cc2c[nH]cn2)NC1=O; free N-terminus/C-amide/cyclic disulfide Cys3-Cys7)
binding (RGS4 residues 52-end; flow cytometry; peptide; room temperature): binds

NYLAWYQ
inhibition (peptide, human polyclonal IgM RF ABR; concentration not given, 5 µg/mL mAb II-481 coated, together with: RF at 50% max binding concentration): 12%

B4 (UGT1A9)
Vmax/Km (COc1ccc(-c2cc(=O)c3ccc(O)cc3o2)cc1; steady-state kinetics; pH 7.4, 37 °C): 227 µL/min/mg

ZWILCH (Homo sapiens, UniProt Q9H900)
binding (MAD1L1/MAD2L1, pS546 on MAD1 (Homo sapiens); pull-down): binds

B5 (Rag2 1-387)
binding (Rag1 384-1008 (Mus musculus, UniProt P15919); pull-down): binds

MRACLKCKYLTNDEICPICHSPTSENWIGLLIVINPEKSEIAKKAGIDIKGKYALSVKE (spt4 1-59 (Methanocaldococcus jannaschii, UniProt Q57839))
binding (Spt5 NGN domain 1-82 (Methanocaldococcus jannaschii, UniProt Q57818); crystal structure): binds

B6 (mmoB 1-138)
binding (mmoX (Methylosinus trichosporium, UniProt P27353); crystal structure; pH 7): binds

GTCFGTCW-NH2 (designed peptide; disulfide 3-7; also: on OBOC bead: half N-acetylated, half free N-terminus; half N-acetyl, half free N-terminus/C-amide/cyclic disulfide Cys3-Cys7)
binding (RGS4 residues 19-end; fluorescence imaging of beads; peptide): binds

B7 (pum 848-1090)
binding (CNOT1/CNOT2/CNOT3/CNOT10/CNOT11/CNOT7/CNOT6/CNOT9 CCR4-NOT complex; pull-down): binds

B8 (SEC66)
binding (SEC63, PEGylated surface lysines (Saccharomyces cerevisiae, UniProt P14906); cryo-EM): binds

Ac-KHCYGFCK-NH2 (designed peptide; disulfide 3-7; SMILES CC(=O)N[C@@H](CCCCN)C(=O)N[C@@H](Cc1c[nH]cn1)C(=O)N[C@H]1CSSC[C@@H](C(=O)N[C@@H](CCCCN)C(N)=O)NC(=O)[C@H](Cc2ccccc2)NC(=O)CNC(=O)[C@H](Cc2ccc(O)cc2)NC1=O; N-acetyl/C-amide/cyclic disulfide Cys3-Cys7)
binding (RGS4 residues 52-end; flow cytometry; peptide; room temperature): binds

ACAT1 (Homo sapiens, UniProt P24752)
binding (PDP1 GST fusion Y94F (UniProt Q9P0J1); pull-down; phosphorylated partner): binds

B9 (rpaA)
binding (sasA (Synechococcus elongatus, UniProt Q06904); fluorescence polarisation; without KaiC): binds

B10 (ftsZ)
binding (ezrA 22-562 K135C/C222A (Bacillus subtilis, UniProt O34894); cross-linking): binds

Excerpt of the above:
Ac-YWCKGLCK-NH2 (designed peptide; disulfide 3-7; SMILES CC(=O)N[C@@H](Cc1ccc(O)cc1)C(=O)N[C@@H](Cc1c[nH]c2ccccc12)C(=O)N[C@H]1CSSC[C@@H](C(=O)N[C@@H](CCCCN)C(N)=O)NC(=O)[C@H](CC(C)C)NC(=O)CNC(=O)[C@H](CCCCN)NC1=O; N-acetyl, C-amide, Cys3-Cys7 disulfide)
binding (RGS4 residues 52-end; flow cytometry; peptide; room temperature): binds

CIKVAVS
inhibition (peptide, human polyclonal IgM RF ABR; concentration not given, 5 µg/mL mAb II-481 coated, together with: RF at 50% max binding concentration): 0%

B2 (apcA)
binding (apcE, phycocyanobilin (Synechocystis sp. PCC 6803, UniProt Q55544); cross-linking): binds
